Measured values gathered from unrelated publications.
Each numbered part is a random draw from the data of one study; scales do not carry over between parts.

Set 1 — method: protein-binding microarray; molecule type: double-stranded DNA, one strand shown; medium: in vitro; concentration: not given; direction: higher = stronger binding
Target: Transcriptional repressor CTCF (CTCF, Homo sapiens, UniProt P49711, residues 1-727, full length assumed)
UniProt P49711, sequence (whole entry, looked up): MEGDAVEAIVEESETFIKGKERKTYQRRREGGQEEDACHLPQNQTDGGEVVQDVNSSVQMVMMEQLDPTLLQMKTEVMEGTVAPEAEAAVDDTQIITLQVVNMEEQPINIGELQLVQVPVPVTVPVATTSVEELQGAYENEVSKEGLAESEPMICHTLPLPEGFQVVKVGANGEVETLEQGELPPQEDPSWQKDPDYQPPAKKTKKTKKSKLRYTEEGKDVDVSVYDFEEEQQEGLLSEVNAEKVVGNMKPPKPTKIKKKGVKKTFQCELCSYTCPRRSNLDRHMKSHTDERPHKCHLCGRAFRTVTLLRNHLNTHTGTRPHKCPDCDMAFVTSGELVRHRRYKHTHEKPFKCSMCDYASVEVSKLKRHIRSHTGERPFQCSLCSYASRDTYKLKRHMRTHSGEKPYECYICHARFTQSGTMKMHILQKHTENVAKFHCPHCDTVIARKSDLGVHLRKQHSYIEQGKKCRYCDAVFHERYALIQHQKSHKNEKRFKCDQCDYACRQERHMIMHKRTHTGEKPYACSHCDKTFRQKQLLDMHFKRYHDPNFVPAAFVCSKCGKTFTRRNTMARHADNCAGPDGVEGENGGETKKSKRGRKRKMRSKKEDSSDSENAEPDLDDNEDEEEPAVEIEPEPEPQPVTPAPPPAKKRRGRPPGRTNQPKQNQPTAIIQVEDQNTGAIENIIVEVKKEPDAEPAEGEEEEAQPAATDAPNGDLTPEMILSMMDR
Setting: k-mer, scored over probes, only values ≥0.25
For `ATATAAGA`, the E-score was 0.325.
`AGTATAAG` gave an E-score of 0.299.
For `TACCGCTA`, the E-score was 0.257.
The E-score of `TACACCTA` is reported as 0.339.
`ATTAACTC` gave an E-score of 0.256.
The E-score of `CGTACGTA` is reported as 0.259.
With `GGCGCGCA` the E-score was 0.348.
`AAATAAAA` gave an E-score of 0.33.
`CGATTATA` gave an E-score of 0.255.
For `CAGCGCCA`, the E-score was 0.292.
`TATGTCAA` gave an E-score of 0.302.
For `AACAGTAT`, the E-score was 0.311.
`GCGCATGA` gave an E-score of 0.325.
`AATTTTTA` gave an E-score of 0.271.
The E-score of `AACAATTA` is reported as 0.257.
`ATAAAAAC` has an E-score of 0.273.
With `ACAAATGC` the E-score was 0.262.
`AATTTACG` gave an E-score of 0.296.
With `AGTAAAAA` the E-score was 0.257.
`ATGTTACA` gave an E-score of 0.266.
For `TGTAATAA`, the E-score was 0.309.
For `AACAATCA`, the E-score was 0.274.
For `ATTTAGTG`, the E-score was 0.254.
For `TGGCGCAA`, the E-score was 0.434.
`AGGTATAT` has an E-score of 0.29.

Set 2 — method: protein binding microarray; molecule type: double-stranded DNA, one strand shown; medium: in vitro; concentration: not given; reference: not given; direction: higher = stronger binding
Target: Histone acetyltransferase KAT6A, both winged helices, GST fusion (KAT6A, Homo sapiens, UniProt Q92794, residues 1-181)
Setting: 8-mer, flanks averaged, mean of 2 arrays, mostly near background
Target sequence (chain): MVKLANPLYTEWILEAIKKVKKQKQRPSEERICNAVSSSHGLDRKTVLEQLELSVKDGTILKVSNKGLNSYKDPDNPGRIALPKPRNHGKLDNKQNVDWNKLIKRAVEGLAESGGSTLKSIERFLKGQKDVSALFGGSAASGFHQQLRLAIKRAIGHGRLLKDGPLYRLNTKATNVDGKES
`ATAGCTAA` gave an E-score of -0.103.
For `CACACGGA`, the E-score was 0.234.
`ATCTGCCC` gave an E-score of -0.0295.
With `AGGAGTCG` the E-score was -0.223.
`GCGGGAGC` gave an E-score of 0.249.
With `AAGTACTG` the E-score was -0.121.
For `CGCCAAGC`, the E-score was 0.148.
For `TGCGGAAA`, the E-score was 0.198.
For `CTCGTGCC`, the E-score was -0.0222.
The E-score of `AGACGTTA` is reported as -0.0717.
The E-score of `ACGGGTAC` is reported as 0.218.
`ATCGGAGA` gave an E-score of 0.0184.
`CCGTACAA` has an E-score of 0.167.
The E-score of `CGCATGAA` is reported as 0.145.
With `CATCCCGA` the E-score was 0.0641.
`CGGATCAA` has an E-score of 0.131.
With `ACGTTAGC` the E-score was 0.0935.
For `AGCGATAG`, the E-score was -0.0636.
For `AACACACT`, the E-score was -0.0473.
With `TGTAGAAA` the E-score was -0.216.
`CTACCCAA` gave an E-score of -0.166.

Set 3 — method: RNA Bind-n-Seq; molecule type: RNA; medium: in vitro; concentration: 200 nM; setting: whole 134-nt RNA, ends assumed; added: 150 mM LiCl; reference: input library; direction: higher = stronger binding; each molecule: 7-deaza-guanosine replaces G
Target: Fragile X messenger ribonucleoprotein 1, C-terminal low-complexity region (Fmr1, Mus musculus, UniProt P35922)
`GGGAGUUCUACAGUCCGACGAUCUCCUGUGCUACACAUCGUAUGUACCGAAUCGGGAAAAAAGGGGAAAAAAGGAAAAAAGGGAAAGUAUUAUGUUACGCCGUUCGGAUCUGCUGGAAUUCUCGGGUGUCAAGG` gave a log2 enrichment of -0.175.
For `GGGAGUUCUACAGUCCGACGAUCUCCCUGAAUCACCGACUGGAGGAGAGUUACCUACAAGAGCCUUCAUCCAGGAGCAUCCACACUGCAAUGAUAUAGGAAUGAGGUCUGAACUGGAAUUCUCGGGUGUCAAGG`, the log2 enrichment was -0.534.
For `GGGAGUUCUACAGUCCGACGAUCUGGGAGGUGGAUUUUGUUUAUUUUUUUAGCUCAUUUCCAGGGGUGGGAAUUUUUUUUUAAUAUGUGUCAUGAAUAAAGUUGUCUUUGAAAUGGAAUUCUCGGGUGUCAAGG`, the log2 enrichment was 0.0651.
For `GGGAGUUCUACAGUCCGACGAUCUGGUGGACAGAAGGCACUGCAGCCUGAAAUGGCAGAGUCUGGUGCUGACGAUCCGCGAGAAGAUCAAUGCUGCCAUCCAGGACAUGCCAGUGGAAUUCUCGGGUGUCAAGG`, the log2 enrichment was -2.41.
`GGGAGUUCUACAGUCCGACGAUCACCAUGCAGGUGGGCAUCUUUGGGAAGUGGCGCAAGGGGGGGAUAGGGAGGGGGGUAACACUUUGGGAACAGGUGGUCCCAGGUCGUUUCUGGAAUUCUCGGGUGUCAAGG` gave a log2 enrichment of 1.47.
For `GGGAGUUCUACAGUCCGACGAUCUAUGAGGAUGAGUUGGUGCCCCUUUUUGAGAAGGCCGGACCCAUUUGGGAUCUACGUCUUAUGAUGGAUCCACUGUCCGGUCAGAAUAGAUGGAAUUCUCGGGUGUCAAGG`, the log2 enrichment was 0.966.
The log2 enrichment of `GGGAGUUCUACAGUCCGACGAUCACCAUGCAGGUGGGCAUCUUUGGGAAGUGGGGCAAGGGGGGGAUCGGGAGGGGGGUAACACUUUGGGAACAGGUGGUCCCAGGUCGUUUCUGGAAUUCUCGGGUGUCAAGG` is reported as 0.808.
With `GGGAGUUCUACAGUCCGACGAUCAGUCCUGUGCUACACAUCGUAUGUACCGAAUCGGAAAAAAAGGUUUUUGGAAAAAGGAAAGUAUUAUGUUACGCCGUUCGGAUCUGCACUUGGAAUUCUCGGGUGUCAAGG` the log2 enrichment was -3.04.

Set 4 — method: protein-binding microarray; molecule type: double-stranded DNA, one strand shown; medium: in vitro; concentration: 2200 nM top; setting: 60-bp whole probe; added: salmon DNA 0.4 mg/ml; reference: random background probes; direction: higher = stronger binding; constant ends, left off below: GCCTAGCAC … GTCTTGATTCGCTTGACGCTGCTG
Target: Interferon regulatory factor 7, full length, phosphomimetic (IRF7, Homo sapiens, UniProt Q92985, residues 1-503, S471D/S472D/S475D/S476D/S477D/S483D/S484D/S487D)
UniProt Q92985, sequence (whole entry, unmodified, looked up): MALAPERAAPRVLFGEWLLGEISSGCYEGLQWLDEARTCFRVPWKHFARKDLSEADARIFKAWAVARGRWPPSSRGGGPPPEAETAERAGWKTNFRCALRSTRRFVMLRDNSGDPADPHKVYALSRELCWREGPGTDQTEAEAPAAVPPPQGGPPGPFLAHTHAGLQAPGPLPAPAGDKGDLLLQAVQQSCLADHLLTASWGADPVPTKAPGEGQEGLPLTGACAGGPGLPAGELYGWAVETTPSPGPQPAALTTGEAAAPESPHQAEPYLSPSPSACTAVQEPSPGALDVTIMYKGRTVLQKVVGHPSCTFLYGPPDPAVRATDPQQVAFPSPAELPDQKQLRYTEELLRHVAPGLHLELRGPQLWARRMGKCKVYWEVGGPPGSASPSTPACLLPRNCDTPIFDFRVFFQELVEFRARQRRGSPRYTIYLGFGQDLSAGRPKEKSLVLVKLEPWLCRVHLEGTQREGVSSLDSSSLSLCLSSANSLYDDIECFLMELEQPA
For `ATTTTTTTCATTATTGTTTCGTGCTAG`, “fitted relative affinity” read 2.73 z-score.
`TTAGATACCAGTTTCGATTAGTGCTAG` — result for “fitted relative affinity”: 5.78 z-score.
`TCAGTTTTTACTTTCTGACTGTGCTAG`: “fitted relative affinity” 3.71 z-score.
`GAGGGTTTCGGTTTCGGGACGTGCTAG`: “fitted relative affinity” 12.6 z-score.
`TTATATCTCAGTCTCGATTAGTGCTAG` — result for “fitted relative affinity”: 1.09 z-score.
`TTAGGACTGGGGTTTCGGTTTGTGCTA` — result for “fitted relative affinity”: 7.62 z-score.
`GACGGTTTCCGTATCCTGACGTGCTAG`: “fitted relative affinity” 3.69 z-score.
`TTAGGTTTCCTCTCCCTTTAGTGCTAG`: “fitted relative affinity” 2.23 z-score.
`TTGGATATCAGTATCGATTAGTGCTAG`: “fitted relative affinity” 0.496 z-score.
For `TCATGTCTGATTATTTAACTGTGCTAG`, “fitted relative affinity” read 0.719 z-score.
`TACGGTCTCGGACTGGGGACGTGCTAG`: “fitted relative affinity” -0.378 z-score.
`TTAGGGCTCGGTTTCGGTTAGTGCTAG`: “fitted relative affinity” 5.71 z-score.
`TTAGAACTGGAGTTTCGATTAGTGCTA`: “fitted relative affinity” 2.98 z-score.
For `GACGAACCGGGGACTGGAGACGTGCTA`, “fitted relative affinity” read -0.519 z-score.
`TTAGGTCTGCTTATCCTTTAGTGCTAG` — result for “fitted relative affinity”: 0.697 z-score.
`TTAGGACTGCTACTGCTCTAGTGCTAG`: “fitted relative affinity” -0.182 z-score.

Other studies, line by line
`PhoQ, residues 284 288 289 292 302 303 ASHLAV` has a fold induction of 7.87 (PhoP, residues 12 14 15 18 19 YHFSH (Escherichia coli, UniProt P23836); Sort-seq, item: YFP reporter; E. coli; PhoQ-PhoP variant library, added: 10 µM Mg2+; reference: high Mg2+ state, higher = stronger signaling).

A few entries again (set 1):
For `ATATAAGA`, the E-score was 0.325.
`AGTATAAG` gave an E-score of 0.299.
For `TACCGCTA`, the E-score was 0.257.
The E-score of `TACACCTA` is reported as 0.339.
`ATTAACTC` gave an E-score of 0.256.
The E-score of `CGTACGTA` is reported as 0.259.
With `GGCGCGCA` the E-score was 0.348.
`AAATAAAA` gave an E-score of 0.33.
`CGATTATA` gave an E-score of 0.255.
For `CAGCGCCA`, the E-score was 0.292.
